Results collected from several papers.
Parts stem from different laboratories: compare values within a part only. Substitutions count along the parent as printed.

Set 1
Target: Ras GTPase-activating protein-binding protein 1, full length (G3BP1, Homo sapiens, UniProt Q13283)
Sequence of UniProt Q13283 (whole entry, looked up): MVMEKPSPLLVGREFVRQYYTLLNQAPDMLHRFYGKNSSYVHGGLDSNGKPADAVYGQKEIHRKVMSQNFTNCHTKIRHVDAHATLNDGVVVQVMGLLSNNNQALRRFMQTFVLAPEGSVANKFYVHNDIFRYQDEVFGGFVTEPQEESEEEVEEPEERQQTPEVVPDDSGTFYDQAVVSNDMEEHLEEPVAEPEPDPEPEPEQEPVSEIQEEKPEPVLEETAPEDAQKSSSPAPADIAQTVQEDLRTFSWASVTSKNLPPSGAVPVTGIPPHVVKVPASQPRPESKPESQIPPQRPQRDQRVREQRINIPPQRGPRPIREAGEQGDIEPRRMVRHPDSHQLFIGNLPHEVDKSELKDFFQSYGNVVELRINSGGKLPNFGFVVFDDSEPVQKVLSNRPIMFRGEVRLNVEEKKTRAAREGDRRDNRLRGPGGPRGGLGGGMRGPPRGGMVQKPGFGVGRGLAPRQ
Technique: RNA Bind-n-Seq
Molecule type: RNA
Medium: in vitro
Concentration: 200 nM
Setting: whole 134-nt RNA, ends assumed
Added: 150 mM KCl
Relative to: input library
Reading: higher = stronger binding
All sequences stand within: GGGAGUUCUACAGUCCGACGAUC … UGGAAUUCUCGGGUGUCAAGG
Sequence	log2 enrichment
CACAGACAACACGCACCCACACAGAAAAAGAGGGAAGGGGUUGGGAUGGGGACAGGGUGCACAGCAGGGCGGGGUAGGACCCCAGCCCCU	1.84
ACCAUGAAGGUGGGCAUCUUUGGGAAGUGGGGCAAGGGGGGGAUAGGGAGGGGGGUAACACUUUGGGAACAGGUGGUCCCAGGUCGUUUC	1.27
CAAGUCCUGUGCUACACAUCGUAUGUACCGAAUCGGAAAAAAAGGUUUGGUUUGGAAAGUAUUAUGUUACGCCGUUCGGAUCUGCACUUC	-1.13
UCAAGUCCUGUGCUACACAUCGUAUGUACCGAAUCGGGUUUGGUUUGGGUUUGGAAAGUAUUAUGUUACGCCGUUCGGAUCUGCACUUCC	-0.723
UCCUGUGCUACACAUCGUAUGUACCGAAUCGGGGAAAGGGGAAAAAGGGGAAAAAGGGGAAAGUAUUAUGUUACGCCGUUCGGAUCUGCA	0.596
UUGCUAAUCUAUAAAUUUUUUUUAUAUGAAAUAGCUCAUAGUCGGAAGCCGGCACCCUCAAAUGAGCCCGAAUAUCUAUGUAAAUGGAUG	-1.96
CCUGUGCUACACAUCGUAUGUACCGAAUCGGGAAAAAAGGGAAAAAAGGGAAAAAAGGGGAAAGUAUUAUGUUACGCCGUUCGGAUCUGC	-0.532
GUCCUGUGCUACACAUCGUAUGUACCGAAUCGGCCCCCGGGCCCCCGGGCCCCCGGGGAAAGUAUUAUGUUACGCCGUUCGGAUCUGCAC	-0.823

Set 2
Target: XBP1, bZIP domain (human)
Technique: DHFR protein complementation
Medium: yeast
Setting: single substitutions, most at no-binding floor
Relative to: wild-type JUN-FOS pair
Reading: higher = stronger binding
Starting sequence: JUN, bZIP domain (human); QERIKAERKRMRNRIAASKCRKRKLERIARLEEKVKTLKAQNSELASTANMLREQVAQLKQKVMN; partner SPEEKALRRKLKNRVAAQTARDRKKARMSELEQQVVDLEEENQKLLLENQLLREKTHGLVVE
Change	binding fitness [natural log]
T37H	-0.564
Q55M	-0.606
K34T	-1.05
T37I	-0.651
A49S	-1.16
R53N	-1.32
E33H	-0.896
K36A	-0.433

Set 3
Target: RING finger protein unkempt homolog, zinc fingers 1-6, SBP tag (UNK, Homo sapiens, UniProt Q9C0B0, residues 30-357)
Sequence of UniProt Q9C0B0 (30-357, looked up): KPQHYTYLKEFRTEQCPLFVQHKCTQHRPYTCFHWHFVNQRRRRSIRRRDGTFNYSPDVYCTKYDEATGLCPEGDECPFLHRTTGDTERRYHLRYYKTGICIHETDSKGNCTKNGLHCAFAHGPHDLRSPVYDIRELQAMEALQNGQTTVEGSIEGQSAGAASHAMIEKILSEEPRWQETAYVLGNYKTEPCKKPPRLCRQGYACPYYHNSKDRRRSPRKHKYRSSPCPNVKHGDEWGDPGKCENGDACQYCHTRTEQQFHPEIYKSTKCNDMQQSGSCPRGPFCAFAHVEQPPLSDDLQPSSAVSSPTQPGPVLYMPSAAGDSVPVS
Technique: RNA Bind-n-Seq
Molecule type: RNA
Medium: in vitro
Concentration: 100 nM
Setting: RNA with constant flanks, vertebrate orthologous sites, ends assumed
Relative to: input RNA pool
Reading: higher = stronger binding
All sequences stand within: GGGAGUUCUACAGUCCGACGAUC … CAACAGAGGAUUGAGCAUCA
Sequence	bound/input enrichment [ratio]
ACAGGAGCAGCAUAGGCUGUUUGAGCUUUGGGGAAAUGAGCUUUGCUUUUUAUAUUUAGCUAGGAUACUUUUAUAUGAUGGGUGCUUUGAGUGUGAAUGCAGCAGGCUCUCUUGUUUCCG	1.47
AAUAGUUUUAAGCUUGUUUGCACAGUUUUUCCUUUCCAUUGGAGAUGGAAUUCAUUGCCUUAGGUCUUUUUAAUAGUGUAUUGUUAUUGUUGGGCUGGCUCUAUGCUUGAAAACCAGUUU	1.89
UCCUAUAAUGCUAGCAGACUGGCUUCCCCUUCUACUUCUCCCAGUAACAACAAUCCCACAUAGAUUCCAGACACAUCCGAUGAGACUGUUGUACUCUAGGUUUUCUAUUGUGUCUACAUA	1.67
AAAUUUAUUUCAUGCCCUGGACUCCCUACCGUACUGAUACUUUGAUAGAAUAUGCUUCUUUAGAAGAUUUCCAAAACAGUCGCCAAACAACAACAUAUAAACUUCCAAAUCGGGUAGAUG	1.08
ACUGUUGUUAAGCACUGUGUUCCAGACCAUGUCUGACUUAGUGUAACCUAGGAGAUUUUAUAGUUUUAUUUUAAUGGCACCCCGGUUGACGCAGAGCAGUGGGAAGAGCAGUCCCCUCUA	9.04
ACGUGUACAUUGUGGCAUAUAGUCAACCUGGAAGUAGACCAGCUCUGCUGAUUUGAAAUUUAGAUUUUUUAAUUAUGUACUGGGGACAGGUUUUUGUCGCUUUACAUUGCUUCCUAGUUU	3.29
ACAUAGAAUAUUGGGUGAGCGCAUAAAUUAUCCAAGGCAGUGACUUCAGCUUUAUAUAUAUUGUUAGUUUUAAAGUCACCUCCUUUUAUUUAAACUCCUAGAUCGGAUUGUUUGCUAUUU	1.14
UUCCCUCAGUGACAGUAUGCCAUCUGUAGCUGAUUCCCACUCAAGUCAUUUCUCUGAAUUUAGUUGUUCUGAUCUAGAAAGCAUGAAAACUUCAUGUAGUCAUGGUUCCAGUGAUUAUCA	0.669

Further values, each from its own experiment
Compound	cell line	test	conditions	scale	quantity	value
CCCCOc1ccc(OCCCN2CCOCC2)cc1	mouse MPNST tumor cells	high-content nuclear imaging, refers to: cell number	10 µM, 12 h, mean of 2 replicates	relative to: plate mean, higher = more cells	nuclei count	3.82 z-score

For quick reference, copied from above (further values, each from its own experiment):
Compound	cell line	test	conditions	scale	quantity	value
CCCCOc1ccc(OCCCN2CCOCC2)cc1	mouse MPNST tumor cells	high-content nuclear imaging, refers to: cell number	10 µM, 12 h, mean of 2 replicates	relative to: plate mean, higher = more cells	nuclei count	3.82 z-score
